Measurements pooled from the literature.
Protocols differ between the studies behind these lines.
Target: Tyrosine-protein kinase CSK (CSK, Homo sapiens, UniProt P41240)
Chain of UniProt P41240 (whole entry, looked up): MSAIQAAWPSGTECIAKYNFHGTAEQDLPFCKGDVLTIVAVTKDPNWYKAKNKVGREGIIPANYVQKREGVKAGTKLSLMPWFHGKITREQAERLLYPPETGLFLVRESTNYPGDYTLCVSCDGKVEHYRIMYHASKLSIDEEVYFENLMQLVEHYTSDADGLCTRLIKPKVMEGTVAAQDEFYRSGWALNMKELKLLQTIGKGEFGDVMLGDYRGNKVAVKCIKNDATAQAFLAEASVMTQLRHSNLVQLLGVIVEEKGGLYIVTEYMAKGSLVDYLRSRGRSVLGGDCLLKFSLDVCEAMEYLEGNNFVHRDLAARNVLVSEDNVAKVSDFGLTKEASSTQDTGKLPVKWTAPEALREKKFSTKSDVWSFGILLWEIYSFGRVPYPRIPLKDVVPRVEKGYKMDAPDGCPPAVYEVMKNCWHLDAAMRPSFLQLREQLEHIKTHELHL

| Structure (SMILES) | assay | setting | how to read | endpoint | result |
| --- | --- | --- | --- | --- | --- |
| N[C@H](C(=O)N1CCCC1)C1CCN(c2nccc3c(-c4ncc(Cl)cc4Cl)cccc23)CC1 | kinase activity, inhibitor | 10 µM, added: ATP 1 mM |  | inhibition | 19.9% |
| CC(C)[C@H]1NC(=O)C[C@H]2/C=C/CCSSC[C@@H](NC1=O)C(=O)N[C@H](Cc1cccc3ccccc13)C(=O)NCC(=O)O2 | enzyme activity, inhibitor | 10 µM |  | inhibition | 2.7% |
| O=C1NC(=O)c2c1c1cc(F)c[n+]3c1c1c2c2cc(O)ccc2[n]1[Ru-4]312([N]=C=S)[S+]3CC[S+]1CC[S+]2CC3 (centres unmarked) | enzyme activity | 100 nM, human enzyme, added: 10 µM ATP | relative to: untreated | remaining activity | 108% |
| CS(C)(=O)=Nc1ccc(-c2ccc(-c3nc4cc(O[C@@H]5CO[C@H]6[C@@H]5OC[C@H]6O)[nH]c4cc3F)cc2)cc1 | enzyme activity, inhibitor | 10 µM |  | inhibition | 11% |
| CN(/N=C/c1ccccc1C(=O)O)c1nc(-c2ccccc2Cl)cs1 | enzyme activity, inhibitor | 1 µM |  | inhibition | -9.56% |
| O=C(CN1CN(c2ccccc2)C2(CCN(C(=O)c3cnc4[nH]ncc4c3)CC2)C1=O)NCC(F)(F)F | inhibitor | concentration not given |  | inhibition | < 50% |
| CN(C)[C@H]1C[C@@]23CC[C@@]4(O2)C(=CC[C@]2(C)[C@@H](c5ccc6ccncc6c5)CC[C@H]24)C=C3[C@@H](O)[C@@H]1O | ATP probe labelling, inhibitor, KiNativ profiling | 1 µM |  | inhibition | -10.2% |
| O=C(O)c1ccccc1/C=N/Nc1nc(-c2ccccc2Cl)cs1 | enzyme activity, inhibitor | 1 µM |  | inhibition | -10.6% |

Repeated from above:
| Structure (SMILES) | assay | setting | how to read | endpoint | result |
| --- | --- | --- | --- | --- | --- |
| O=C1NC(=O)c2c1c1cc(F)c[n+]3c1c1c2c2cc(O)ccc2[n]1[Ru-4]312([N]=C=S)[S+]3CC[S+]1CC[S+]2CC3 (centres unmarked) | enzyme activity | 100 nM, human enzyme, added: 10 µM ATP | relative to: untreated | remaining activity | 108% |
